Experimental data from different studies.
Parts stem from different laboratories: compare values within a part only.

Study 1 — method: protein-binding microarray; form: double-stranded DNA, one strand shown; sample: in vitro; concentration: 0.8 µM; setting: whole 60-bp probe, no competitor; direction: higher = stronger binding; shared flanks, not repeated: … GTCTTGATTCGCTTGACGCTGCTG
Target: Centromere-binding protein 1, full length, N-terminal tag (CBF1, Saccharomyces cerevisiae, UniProt P17106, residues 1-351)
Sequence of UniProt P17106 (whole entry, looked up): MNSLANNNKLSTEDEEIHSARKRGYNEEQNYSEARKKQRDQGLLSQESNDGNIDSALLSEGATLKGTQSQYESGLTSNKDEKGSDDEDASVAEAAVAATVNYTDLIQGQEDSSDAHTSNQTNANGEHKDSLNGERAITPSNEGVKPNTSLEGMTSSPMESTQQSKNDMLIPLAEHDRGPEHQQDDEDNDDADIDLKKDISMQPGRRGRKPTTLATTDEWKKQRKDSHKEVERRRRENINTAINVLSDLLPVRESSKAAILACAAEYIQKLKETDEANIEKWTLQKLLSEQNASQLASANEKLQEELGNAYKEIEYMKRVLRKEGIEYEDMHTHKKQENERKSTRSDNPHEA
Oligonucleotide | fluorescence intensity [a.u.]
GAAACTGAGAATGAGCGCGTGGGCCAGAAACGGTAG | 586
CTACTAGTATACTGTCACATGCGGTGTAACGTGTTC | 1940
GAAGCTGAAAAACTGCACGAGAATTCGTGAAACTAG | 627
CTAGATACTTAGGTATACCTGACGGGCAGTCCTTTC | 494
CTATGTAATTTTTGGCATGTGCTATTGTATGAATTC | 1020
CTATAATATCTCGCCATCACCAGGTTGACGGTATTC | 522
CTAAAAAATCTTGATCACATCAACCAAAAATGTTTC | 560
GAAAATATTTGTGTGCACGAGATATGGGAGGACTAG | 1300
CTAGTGAAGGCCATCAAAATCACGTTTATCAATTTC | 1470
GAAAACTTTATTTGTCACCTTTTTGCTGGTATTTAG | 528
GAATACAGGTGTTATGGCACGTGCGAATAAGGGTAG | 10400
CTATATATATGCATACACGTTATTGAAGTTATATTC | 617
GAAATTTGAAGTCATCACGTTTGCCCACATCAATAG | 781
CTATGGATTGCCAGAAACGTGACGTGAAATACCTTC | 3810
CCTAACTACTATAGGTACACGTCATAGCTTCGTACA | 509
CCTAACTACTATAATCACGCGATATAGCTTCGTACA | 1320
TGTACGAAGCTATTGCACACGATTATAGTAGTTAGG | 548
CTATTATCAAAAAAGTGCGTGGTCACTCTAGACTTC | 545
GAAGATCTGCTATTGCATGTGGTGAAAGTTATATAG | 566
CTATATTGTTGAGATCATATGATGATAACGCAATTC | 899
GAAATTCTTCCAAATCTGATCACGTTAGGAAATTAG | 2310
CTAGAAGCAGAAATACACGCGATAAGTGAATCTTTC | 601
TGTACGAAGCTATTACACGTGACTATAGTAGTTAGG | 14800
CCTAACTACTATAACGTGATGGTATAGCTTCGTACA | 1070
CTATACTGGGTAAAATTCACCACGTTATCTTCTTTC | 896

Study 2 — method: protein-binding microarray; form: double-stranded DNA, one strand shown; sample: in vitro; concentration: 250 nM; setting: 60-bp whole probe; with: salmon DNA 0.4 mg/ml; reference: random background probes; direction: higher = stronger binding; shared flanks, not repeated: GCCTAGCAC … GTCTTGATTCGCTTGACGCTGCTG
Target: Interferon regulatory factor 5, full length, phosphomimetic (IRF5, Homo sapiens, UniProt Q13568-2, residues 1-514, K96S/S451D/S453D/S456D/S462D)
Oligonucleotide | log fluorescence [z-score]
CTAGGTATCGGTCTCGGTTAGTGCTAG | 6.09
GACGGACTCCTACTGCTGACGTGCTAG | -0.494
TTAGGACTGGAACTGGGTTAGTGCTAG | -0.604
TCCTCTTTACTGCTCCACACGTGCTAG | 0.16
TTAGATTTCAGTATCGATTAGTGCTAG | 8.58
TCAAGAAAGAAAACGGGGAGGTGCTAG | 0.61
TTAGGTTTCAGTCTCGATTAGTGCTAG | 4.67
GACGCACTGGGTATCGGGACGTGCTAG | 0.478
GACGGTTTCGACACTTGGGACGTGCTA | 4.13
GACGGTTTCCTTATCCTGAAGTGCTAG | 0.745
TGAGAACTGAGTCTCGATTAGTGCTAG | 0.528
TCACTTTTTGCTTTCTTACTGTGCTAG | 2.34
TTAAGTCTCCTTATCCTTTAGTGCTAG | 0.262
TCACACATGCATCTCCCACTGTGCTAG | 0.138
AACGATATCAGACTGGAGACGTGCTAG | 0.651
TTAGGTCTCGGACAGGGTTAGTGCTAG | -0.316
TCAATTTTTAGTTAGAAACTGTGCTAG | 0.81
CTAGATCTCAGTATCGATTAGTGCTAG | 6.59
TCACTTGTGTTTATTGTACTGTGCTAG | 0.681
TATGTTCACTATTTAAGAACGTGCTAG | 0.717
GACGGTTCCCTTTTCCTTACGTGCTAG | 0.724
TTAGGACTGGGGACTGGATTAGTGCTA | -0.596
AAGACCATCCTGTGTCTTAAAGTGCTA | -0.561

Study 3 — method: RNAcompete; form: RNA; sample: in vitro; concentration: 20 nM; setting: 7-mer, probes averaged, single round; reference: mean of 7-mers; direction: higher = stronger binding
Target: PABPC1L2, full length, GST fusion (mouse, UniProt A0ABA7IW68)
Residues (chain): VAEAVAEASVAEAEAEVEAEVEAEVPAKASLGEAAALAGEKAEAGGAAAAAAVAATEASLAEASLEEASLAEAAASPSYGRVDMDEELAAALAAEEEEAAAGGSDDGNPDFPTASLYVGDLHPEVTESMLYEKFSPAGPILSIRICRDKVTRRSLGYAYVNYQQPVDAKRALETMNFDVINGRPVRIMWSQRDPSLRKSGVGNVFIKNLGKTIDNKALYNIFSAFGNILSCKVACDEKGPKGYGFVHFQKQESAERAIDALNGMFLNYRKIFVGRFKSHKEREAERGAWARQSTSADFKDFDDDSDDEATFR
Oligonucleotide | 7-mer Z-score
GCCCUGC | -0.327
CUGUUGC | -0.458
GGGACCC | -0.186
UGCCUCU | -0.36
UAGGGAG | 0.233
GGUGGUC | -0.0609
CUUCUGU | -0.474
GCCCUGA | -0.273
AAGACGC | 0.385
UAACGUC | -0.396
AUAUUGG | -0.0264
GGGUCAU | 0.137
UGGAAAA | 4.27
UAUCGUG | -0.267
GUUGAUU | 0.0279
GCUAGUU | -0.36
GUUUCAU | -0.423
GGUGGGC | 0.166
CAGCGUG | -0.251
GGGUUCU | -0.17
AUACAGA | 0.129
GGUUCAC | -0.235

Study 4 — method: RNA Bind-n-Seq; form: RNA; sample: in vitro; concentration: 365 nM; reference: no-protein control; direction: higher = stronger binding
Target: RNA binding protein fox-1 homolog 2, RRM domain, GST-SBP tag (RBFOX2, Homo sapiens, UniProt O43251-10, residues 100-194)
Setting: natural RNA segment, single round, ends assumed
Shared flanks, not repeated: GGGAGUUCUACAGUCCGACGAUC … UGGAAUUCUCGGGUGCCAA
Target sequence (chain): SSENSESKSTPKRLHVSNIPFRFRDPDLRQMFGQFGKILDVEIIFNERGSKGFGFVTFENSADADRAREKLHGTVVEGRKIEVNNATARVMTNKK
Oligonucleotide | RBNS enrichment (R)
UUUCUCACACCAAGGCAGAUGCUCCUCUGGUGGGAGGGUGCUGGCCCUGGCAAGAUUGAAGGAUGUGCAGGGCUUCCUCUCAGAGCCGCCCAAACUGCCGUUGAUGUGUG | 0.559
UAUUCAAUCUGCACAAAGUCCAAGGUAUGCUAGGUUCACCAAAGUAGAUUUGCUGGACCUGAUCCCCAAGCACAGGAGUGGUACCCUCCACAGAAGCUGGGGGAGAGUCU | 0.836
CUCCCGUCGUACCGCUUUAACCCGGACAGCCAUCAGUCGGAGCAGACGCGGUGUGUGGUCUGCUUCAGUGACUUCGAGGCGCGGCAGCUGCUCCGAGUCCUCCCCUGCAA | 0.353
CCAGAAGCUCUCUUCUGCUUCAAAACCUGGGAUCUCUGGCAUUACCCUAUUGGGAUGGACCGCUGGACAGCAAUGCUCGAGUUUGUGAAUUUGGAGAGAUACUCAAAAGA | 0.323
AGCCCUUCAGAAGGGCUCAACUACUGUCCUAUACAAUCAAGUGACUGAAAUUCCUGGGAAGACACUUUGCUCCUCACCUAACCCCACCCCCAUCCCUAAACGAUGUUGUU | 0.356
UGGGUGACUGGCUUGGUGGCUUCUGCUAGCCAUCUAAGGCUGGAUAAGGAACUUCCCAGAUGAUUAGAAGUACAAGACUUGCUUUGUUUUGUUUUCUUUGGUUUUUGUGU | 0.825
GUGGACAUCAUCGACAGGAACAAUCACCAUAACAUGGUUAGAUGCUGCGGCCUCCGGAGCGCUUUCUCUGAAGCGACUGCACGUUCCUGCUGCUCUCCGAUCUCAUCAGA | 0.325
ACACUCAGCCAGGCCUGUCAUGAUUGGCUUUAUUUCUUUCAUCAUUCAUAAAAGUUUGCAUGUGUUUUUAUUCUCUAGAUCUGUUACCAAUAUAGUUUUCUAACUCCUGU | 6.84
UUCAAGGCUCUCCUAUAGGGAGAAACAUGGCCAAAAAGACAGGAAGAACUGUGGCUUGUAACUCAAUGAUGCUAUAACUCCAGCACUGGAUCUUAAGUAUUCUGGAAUAU | 0.793
AGUCUUUUUCUGGUUUUGCUCAAGUUGAAGAAUGCGUGGAGAGUCUUCUGGUGAGACAUCCUCUGUCCCGGGUCCCAUUUCCCCACCUGUAACUGAGGUUAGGAAAAGAU | 0.334
UACCCAACUAUGUUGUGAUAGAAGAAAGAGAAACCUUCACUUUGGCAUUUUUUUUUAAUCACUGUUUAUUUUUCUGUUUGCGGCCCAGGAAGCAGUGGGAGGUGGUGGCA | 0.955
AAAGUUGAGACUACUCAAUCCAGUUAACAACAGCAGGAGCACUAGAGUUUGUUCAUUUAUUCUCUCUGUAAAACAAGCUGUGCUUUUUUUCUUCUGCCUUUAAAAUGCCA | 0.578

Repeated from above (study 1):
Oligonucleotide | fluorescence intensity [a.u.]
CTATAATATCTCGCCATCACCAGGTTGACGGTATTC | 522
CTATGGATTGCCAGAAACGTGACGTGAAATACCTTC | 3810
CCTAACTACTATAACGTGATGGTATAGCTTCGTACA | 1070
CTATATTGTTGAGATCATATGATGATAACGCAATTC | 899
CTATACTGGGTAAAATTCACCACGTTATCTTCTTTC | 896
GAAGCTGAAAAACTGCACGAGAATTCGTGAAACTAG | 627
CTACTAGTATACTGTCACATGCGGTGTAACGTGTTC | 1940
